Published values from different studies.
Every numbered part comes from another study and shows a few of its results, in no order. Values joined by “and” are separate records of one study, mostly repeats; a detail may differ.
Sequence of UniProt P31645 (whole entry, looked up): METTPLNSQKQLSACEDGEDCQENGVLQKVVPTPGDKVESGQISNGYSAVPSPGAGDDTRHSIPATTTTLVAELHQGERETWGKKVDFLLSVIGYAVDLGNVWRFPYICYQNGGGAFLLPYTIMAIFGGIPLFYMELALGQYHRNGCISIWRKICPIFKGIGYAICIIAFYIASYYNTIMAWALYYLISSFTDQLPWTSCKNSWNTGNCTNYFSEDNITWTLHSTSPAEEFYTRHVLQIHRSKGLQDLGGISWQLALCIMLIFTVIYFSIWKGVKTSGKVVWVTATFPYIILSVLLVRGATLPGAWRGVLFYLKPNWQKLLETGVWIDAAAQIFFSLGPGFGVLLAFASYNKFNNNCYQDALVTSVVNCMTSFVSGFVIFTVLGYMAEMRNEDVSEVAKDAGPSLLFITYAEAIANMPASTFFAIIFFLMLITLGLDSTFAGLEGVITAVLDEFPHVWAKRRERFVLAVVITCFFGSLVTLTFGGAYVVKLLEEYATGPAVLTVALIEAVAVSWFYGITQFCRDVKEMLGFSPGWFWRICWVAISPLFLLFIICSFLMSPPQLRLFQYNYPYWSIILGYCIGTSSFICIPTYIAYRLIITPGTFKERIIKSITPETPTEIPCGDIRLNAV
Sequence of UniProt P08908 (whole entry, looked up): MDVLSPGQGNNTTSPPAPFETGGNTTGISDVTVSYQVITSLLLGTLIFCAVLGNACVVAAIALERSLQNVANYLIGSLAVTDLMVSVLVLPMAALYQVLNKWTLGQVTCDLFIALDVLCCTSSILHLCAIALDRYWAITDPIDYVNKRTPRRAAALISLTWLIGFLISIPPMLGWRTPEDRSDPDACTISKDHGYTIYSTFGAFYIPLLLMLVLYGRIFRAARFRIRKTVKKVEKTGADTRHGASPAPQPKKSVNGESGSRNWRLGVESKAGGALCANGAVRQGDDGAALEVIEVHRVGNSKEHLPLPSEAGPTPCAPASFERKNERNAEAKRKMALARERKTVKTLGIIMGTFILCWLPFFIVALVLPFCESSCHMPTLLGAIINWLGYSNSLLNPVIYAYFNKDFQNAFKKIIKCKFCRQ
Sequence of UniProt Q01959 (whole entry, looked up): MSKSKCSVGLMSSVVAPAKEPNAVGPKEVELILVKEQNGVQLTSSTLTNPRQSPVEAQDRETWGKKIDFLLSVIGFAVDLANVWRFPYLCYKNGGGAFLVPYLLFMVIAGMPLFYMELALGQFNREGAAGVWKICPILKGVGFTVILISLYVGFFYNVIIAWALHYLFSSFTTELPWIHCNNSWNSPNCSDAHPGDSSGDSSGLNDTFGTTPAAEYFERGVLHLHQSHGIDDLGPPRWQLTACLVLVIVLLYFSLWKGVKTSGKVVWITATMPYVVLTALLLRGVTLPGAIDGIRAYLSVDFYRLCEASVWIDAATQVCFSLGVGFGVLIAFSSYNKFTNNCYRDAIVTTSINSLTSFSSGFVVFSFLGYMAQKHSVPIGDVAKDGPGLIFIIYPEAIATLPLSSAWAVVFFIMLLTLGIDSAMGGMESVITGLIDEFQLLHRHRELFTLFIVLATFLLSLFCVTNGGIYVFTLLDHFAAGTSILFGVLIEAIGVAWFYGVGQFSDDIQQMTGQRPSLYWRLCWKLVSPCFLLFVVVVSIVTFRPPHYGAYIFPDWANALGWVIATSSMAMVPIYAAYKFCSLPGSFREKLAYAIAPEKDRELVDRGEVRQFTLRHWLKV
Sequence of UniProt P23975 (whole entry, looked up): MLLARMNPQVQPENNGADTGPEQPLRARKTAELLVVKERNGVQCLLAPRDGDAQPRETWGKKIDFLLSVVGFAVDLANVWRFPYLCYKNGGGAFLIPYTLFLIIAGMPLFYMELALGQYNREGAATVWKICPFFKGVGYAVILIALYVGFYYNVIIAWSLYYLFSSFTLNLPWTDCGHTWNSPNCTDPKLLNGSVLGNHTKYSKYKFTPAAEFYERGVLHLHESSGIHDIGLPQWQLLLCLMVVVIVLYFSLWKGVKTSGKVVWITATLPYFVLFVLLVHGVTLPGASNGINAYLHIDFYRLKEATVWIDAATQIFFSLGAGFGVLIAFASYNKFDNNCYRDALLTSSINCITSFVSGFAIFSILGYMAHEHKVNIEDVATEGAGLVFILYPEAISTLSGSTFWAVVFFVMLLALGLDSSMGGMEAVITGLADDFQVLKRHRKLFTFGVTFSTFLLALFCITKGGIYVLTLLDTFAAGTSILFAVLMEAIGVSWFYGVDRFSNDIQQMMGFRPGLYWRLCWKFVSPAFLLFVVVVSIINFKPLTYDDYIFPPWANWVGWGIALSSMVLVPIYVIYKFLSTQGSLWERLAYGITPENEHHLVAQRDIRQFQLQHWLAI

Block 1 — read-out: ligand displacement; tested at: 10 µM
Compound: CNC(=N)NCCC[C@H](NC(=O)[C@H](CC(C)C)NC(=O)NNC(=O)[C@H](Cc1ccccc1)NC(=O)[C@H](CO)NC(=O)[C@H](CC(N)=O)NC(=O)[C@@H](Cc1ccncc1)NC(=O)[C@H](N)Cc1ccc(O)cc1)C(=O)N[C@@H](Cc1ccccc1)C(N)=O
| target | assay | inhibition [%] |
| --- | --- | --- |
| SLC6A2 (Homo sapiens, UniProt P23975) |  | 5.4 |
| HTR1A (Homo sapiens, UniProt P08908) | radioligand | 18.5 |
| SLC6A4 (Homo sapiens, UniProt P31645) |  | 8.84 |
| SLC6A3 (Homo sapiens, UniProt Q01959) |  | 12 |

Block 2 — medium: plasma; route: oral; dose: 10 mg/kg
SMILES: CNC(=O)c1ccc(-c2cnn3ccc(C(=O)N(C)c4ccc(Cl)c(C(=O)OC)c4)cc23)cc1
| test system | conditions | plasma concentration |
| --- | --- | --- |
| female IFN-γ knockout C57BL/6 mice | 7 h | 0.325 nM and 0.746 nM and 0.765 nM |
| C57BL/6 IFN-γ knockout mouse, female | 0.25 h | 0.826 nM |
| C57BL/6 IFN-γ knockout mouse, female | 1 h | 12.2 nM |
| C57BL/6 IFN-γ knockout mouse, female | 0.5 h | 3.48 nM |
| female IFN-γ knockout C57BL/6 mice | 1 h | 6.42 nM and 6.58 nM |
| female IFN-γ knockout C57BL/6 mice | 0.5 h | 3.17 nM and 2.16 nM |
| female IFN-γ knockout C57BL/6 mice | 0.25 h | 0.818 nM |
| female IFN-γ knockout C57BL/6 mice | 3 h | 2.7 nM and 2.24 nM and 1.02 nM |

Block 3 — medium: plasma
Structure (SMILES): O=C1CCC(N2Cc3c(ccc4c3OCC43CCN(Cc4ccccc4)CC3)C2=O)C(=O)N1 (centres unmarked)
| test system | conditions | AUC(0-inf) |
| --- | --- | --- |
| male Sprague Dawley rats | intravenous, 1.0 mg/kg | 830 ng·h/mL |
| mouse, ICR, male | intravenous, 1.0 mg/kg | 413 ng·h/mL |
| male ICR mice | intravenous, 1.0 mg/kg | 398 ng·h/mL and 453 ng·h/mL |
| male ICR mice | oral, 3.0 mg/kg | 1070 ng·h/mL and 1290 ng·h/mL |
| mouse, ICR, male | oral, 3.0 mg/kg | 1650 ng·h/mL |
| male Sprague-Dawley rat | oral, 3 mg/kg | 1170 ng·h/mL |
| male Sprague-Dawley rat | intravenous, 1 mg/kg | 800 ng·h/mL |
| male Sprague Dawley rats | oral, 3.0 mg/kg | 1050 ng·h/mL |
| male CD-1 mouse | intravenous, 1 mg/kg | 422 ng·h/mL |

Block 4 — cell line: HEK-293T/ACE2; tested at: concentration not given; time: 16 (unit not given); relative to: vehicle
| SMILES | viability [%] |
| --- | --- |
| CC1CNc2c(cccc2S(=O)(=O)N[C@@H](CCCNC(=N)N)C(=O)N2CC[C@@H](C)C[C@@H]2C(=O)O)C1 (some centres unmarked) | 107 |
| O=C(CCCCC(=O)Nc1c(I)cc(I)c(C(=O)O)c1I)Nc1c(I)cc(I)c(C(=O)O)c1I | 102 |
| C=CC1=C(C(=O)O)N2C(=O)[C@@H](NC(=O)/C(=N\O)c3csc(N)n3)[C@H]2SC1 | 97.8 |
| COCCOC(=O)C1=C(C)NC(C)=C(C(=O)OC(C)C)C1c1cccc([N+](=O)[O-])c1 (centres unmarked) | 102 |
| COc1cc2nc(N3CCN(C(=O)C4CCCO4)CC3)nc(N)c2cc1OC (centres unmarked) | 107 |
| O=C(c1ccc(F)c(F)c1Nc1ccc(I)cc1F)N1CC(O)([C@@H]2CCCCN2)C1 | 94.1 |
| CCC1(c2ccccc2)C(=O)NCNC1=O | 99.7 |
| C[N+](C)(C)CC(=O)O | 94.5 |
| CN1CCC(OC(c2ccccc2)c2ccccc2)CC1 | 101 |
| CC(=O)O[C@H]1C[C@@H]2CC[C@@H]3[C@H](CC[C@@]4(C)[C@H]3C[C@H]([N+]3(C)CCCCC3)[C@@H]4OC(C)=O)[C@@]2(C)C[C@@H]1[N+]1(C)CCCCC1 | 105 |
| CCCCc1ncc(/C=C(\Cc2cccs2)C(=O)O)n1Cc1ccc(C(=O)O)cc1 | 99.7 |

Excerpt of the above (block 2):
| test system | conditions | plasma concentration |
| --- | --- | --- |
| C57BL/6 IFN-γ knockout mouse, female | 0.25 h | 0.826 nM |
| female IFN-γ knockout C57BL/6 mice | 7 h | 0.325 nM and 0.746 nM and 0.765 nM |
| C57BL/6 IFN-γ knockout mouse, female | 0.5 h | 3.48 nM |
| female IFN-γ knockout C57BL/6 mice | 3 h | 2.7 nM and 2.24 nM and 1.02 nM |
